Results from different studies.
Numbered parts are unrelated; each lists some results of a single study. Values joined by “and” are separate records of one study, mostly repeats; a detail may differ.
Sequence of UniProt Q5S007 (whole entry, unmodified, looked up): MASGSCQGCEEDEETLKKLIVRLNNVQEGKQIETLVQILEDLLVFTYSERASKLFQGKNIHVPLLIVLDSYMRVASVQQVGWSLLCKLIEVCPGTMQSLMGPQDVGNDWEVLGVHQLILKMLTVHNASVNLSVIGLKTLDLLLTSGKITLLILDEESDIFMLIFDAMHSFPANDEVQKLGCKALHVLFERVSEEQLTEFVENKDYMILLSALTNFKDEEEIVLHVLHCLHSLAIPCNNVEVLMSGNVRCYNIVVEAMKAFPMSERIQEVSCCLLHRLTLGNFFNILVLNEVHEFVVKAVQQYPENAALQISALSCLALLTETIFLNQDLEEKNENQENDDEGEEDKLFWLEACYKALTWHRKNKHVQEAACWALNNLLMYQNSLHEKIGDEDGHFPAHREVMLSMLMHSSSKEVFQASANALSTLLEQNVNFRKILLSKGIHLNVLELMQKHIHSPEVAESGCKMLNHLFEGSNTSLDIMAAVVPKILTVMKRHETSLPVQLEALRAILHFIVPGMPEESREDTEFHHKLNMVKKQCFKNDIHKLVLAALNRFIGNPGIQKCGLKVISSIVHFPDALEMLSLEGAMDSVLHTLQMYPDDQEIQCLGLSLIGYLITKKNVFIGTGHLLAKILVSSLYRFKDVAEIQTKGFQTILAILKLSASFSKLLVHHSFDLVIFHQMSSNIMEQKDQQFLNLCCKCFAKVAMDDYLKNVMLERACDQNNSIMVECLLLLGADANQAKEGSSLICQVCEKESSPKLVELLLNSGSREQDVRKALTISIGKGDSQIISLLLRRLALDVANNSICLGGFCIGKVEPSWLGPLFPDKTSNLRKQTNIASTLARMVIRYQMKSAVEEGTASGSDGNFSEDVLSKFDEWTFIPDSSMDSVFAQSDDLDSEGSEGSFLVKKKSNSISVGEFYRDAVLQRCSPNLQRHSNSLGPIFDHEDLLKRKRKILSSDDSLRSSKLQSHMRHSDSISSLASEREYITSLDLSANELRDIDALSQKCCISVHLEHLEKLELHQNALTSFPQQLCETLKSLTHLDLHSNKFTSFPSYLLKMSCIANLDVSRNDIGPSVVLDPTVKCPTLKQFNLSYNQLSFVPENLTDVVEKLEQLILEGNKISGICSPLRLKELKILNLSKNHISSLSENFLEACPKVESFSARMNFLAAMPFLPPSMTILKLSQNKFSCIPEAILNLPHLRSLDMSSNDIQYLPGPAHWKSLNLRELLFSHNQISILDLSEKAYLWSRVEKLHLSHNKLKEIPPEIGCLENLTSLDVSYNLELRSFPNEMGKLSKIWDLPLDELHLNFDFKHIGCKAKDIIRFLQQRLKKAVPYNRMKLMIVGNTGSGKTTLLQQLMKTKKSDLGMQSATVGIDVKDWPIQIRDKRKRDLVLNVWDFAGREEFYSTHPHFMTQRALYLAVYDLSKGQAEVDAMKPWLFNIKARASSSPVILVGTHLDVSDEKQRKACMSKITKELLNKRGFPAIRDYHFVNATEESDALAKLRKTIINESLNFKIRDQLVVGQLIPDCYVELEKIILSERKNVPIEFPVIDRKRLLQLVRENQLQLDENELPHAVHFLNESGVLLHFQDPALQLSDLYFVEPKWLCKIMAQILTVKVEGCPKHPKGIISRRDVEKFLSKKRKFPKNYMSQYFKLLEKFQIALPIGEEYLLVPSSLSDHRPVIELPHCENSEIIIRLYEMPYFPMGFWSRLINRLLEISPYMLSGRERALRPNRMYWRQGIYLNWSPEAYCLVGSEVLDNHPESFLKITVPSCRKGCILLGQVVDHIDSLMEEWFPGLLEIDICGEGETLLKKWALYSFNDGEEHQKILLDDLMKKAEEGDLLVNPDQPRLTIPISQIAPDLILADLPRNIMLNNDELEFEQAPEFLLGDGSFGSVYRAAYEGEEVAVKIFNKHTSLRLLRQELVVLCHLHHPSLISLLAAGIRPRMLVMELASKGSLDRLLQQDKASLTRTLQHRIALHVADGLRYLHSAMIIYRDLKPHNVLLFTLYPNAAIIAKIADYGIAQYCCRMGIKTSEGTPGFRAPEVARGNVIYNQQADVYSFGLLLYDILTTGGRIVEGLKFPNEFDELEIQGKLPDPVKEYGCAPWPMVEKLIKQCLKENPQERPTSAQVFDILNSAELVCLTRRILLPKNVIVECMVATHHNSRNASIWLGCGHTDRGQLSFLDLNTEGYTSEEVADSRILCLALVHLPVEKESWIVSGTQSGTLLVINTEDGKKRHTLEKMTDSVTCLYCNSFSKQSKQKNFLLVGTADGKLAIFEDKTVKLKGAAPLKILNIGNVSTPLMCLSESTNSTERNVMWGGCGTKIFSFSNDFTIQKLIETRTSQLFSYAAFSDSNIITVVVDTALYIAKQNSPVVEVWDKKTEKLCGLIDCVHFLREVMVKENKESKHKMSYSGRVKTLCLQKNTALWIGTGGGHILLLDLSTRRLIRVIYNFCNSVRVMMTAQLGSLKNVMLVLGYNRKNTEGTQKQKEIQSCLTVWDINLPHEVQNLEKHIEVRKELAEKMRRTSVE
Sequence of UniProt P15056 (whole entry, unmodified, looked up): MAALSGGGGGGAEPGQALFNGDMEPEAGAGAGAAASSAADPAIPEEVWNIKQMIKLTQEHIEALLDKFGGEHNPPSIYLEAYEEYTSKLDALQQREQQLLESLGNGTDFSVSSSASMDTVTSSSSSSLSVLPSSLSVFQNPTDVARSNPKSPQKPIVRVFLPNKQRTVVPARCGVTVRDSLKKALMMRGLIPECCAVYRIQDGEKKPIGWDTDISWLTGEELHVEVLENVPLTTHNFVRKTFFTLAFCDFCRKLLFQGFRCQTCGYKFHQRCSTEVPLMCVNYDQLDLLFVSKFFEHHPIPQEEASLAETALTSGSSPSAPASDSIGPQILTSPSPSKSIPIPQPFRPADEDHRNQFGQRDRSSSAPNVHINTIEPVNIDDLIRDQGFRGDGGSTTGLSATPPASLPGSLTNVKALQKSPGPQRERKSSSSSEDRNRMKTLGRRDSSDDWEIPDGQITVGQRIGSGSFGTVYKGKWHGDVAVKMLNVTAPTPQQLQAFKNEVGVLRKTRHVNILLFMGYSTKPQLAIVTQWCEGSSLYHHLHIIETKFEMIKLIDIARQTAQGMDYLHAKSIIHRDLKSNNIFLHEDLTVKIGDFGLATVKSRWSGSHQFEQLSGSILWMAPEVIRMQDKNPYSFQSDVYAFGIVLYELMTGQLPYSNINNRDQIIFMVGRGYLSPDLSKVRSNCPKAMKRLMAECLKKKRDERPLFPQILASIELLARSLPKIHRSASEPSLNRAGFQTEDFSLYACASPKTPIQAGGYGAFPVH
Sequence of UniProt Q13705 (whole entry, looked up): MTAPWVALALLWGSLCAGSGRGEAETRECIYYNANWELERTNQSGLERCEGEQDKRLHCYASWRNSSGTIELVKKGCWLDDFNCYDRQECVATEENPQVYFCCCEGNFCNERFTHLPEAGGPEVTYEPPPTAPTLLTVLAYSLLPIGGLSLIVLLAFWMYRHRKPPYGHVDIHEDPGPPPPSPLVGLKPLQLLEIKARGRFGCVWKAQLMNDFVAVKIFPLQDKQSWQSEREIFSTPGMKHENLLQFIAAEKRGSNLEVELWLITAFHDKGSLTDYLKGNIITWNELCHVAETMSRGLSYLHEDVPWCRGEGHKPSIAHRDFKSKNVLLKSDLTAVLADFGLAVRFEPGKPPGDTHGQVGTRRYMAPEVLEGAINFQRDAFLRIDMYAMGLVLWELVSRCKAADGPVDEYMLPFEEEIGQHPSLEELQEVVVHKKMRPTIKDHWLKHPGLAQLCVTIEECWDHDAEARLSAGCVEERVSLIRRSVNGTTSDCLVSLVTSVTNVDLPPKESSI
Sequence of UniProt P07333 (whole entry, looked up): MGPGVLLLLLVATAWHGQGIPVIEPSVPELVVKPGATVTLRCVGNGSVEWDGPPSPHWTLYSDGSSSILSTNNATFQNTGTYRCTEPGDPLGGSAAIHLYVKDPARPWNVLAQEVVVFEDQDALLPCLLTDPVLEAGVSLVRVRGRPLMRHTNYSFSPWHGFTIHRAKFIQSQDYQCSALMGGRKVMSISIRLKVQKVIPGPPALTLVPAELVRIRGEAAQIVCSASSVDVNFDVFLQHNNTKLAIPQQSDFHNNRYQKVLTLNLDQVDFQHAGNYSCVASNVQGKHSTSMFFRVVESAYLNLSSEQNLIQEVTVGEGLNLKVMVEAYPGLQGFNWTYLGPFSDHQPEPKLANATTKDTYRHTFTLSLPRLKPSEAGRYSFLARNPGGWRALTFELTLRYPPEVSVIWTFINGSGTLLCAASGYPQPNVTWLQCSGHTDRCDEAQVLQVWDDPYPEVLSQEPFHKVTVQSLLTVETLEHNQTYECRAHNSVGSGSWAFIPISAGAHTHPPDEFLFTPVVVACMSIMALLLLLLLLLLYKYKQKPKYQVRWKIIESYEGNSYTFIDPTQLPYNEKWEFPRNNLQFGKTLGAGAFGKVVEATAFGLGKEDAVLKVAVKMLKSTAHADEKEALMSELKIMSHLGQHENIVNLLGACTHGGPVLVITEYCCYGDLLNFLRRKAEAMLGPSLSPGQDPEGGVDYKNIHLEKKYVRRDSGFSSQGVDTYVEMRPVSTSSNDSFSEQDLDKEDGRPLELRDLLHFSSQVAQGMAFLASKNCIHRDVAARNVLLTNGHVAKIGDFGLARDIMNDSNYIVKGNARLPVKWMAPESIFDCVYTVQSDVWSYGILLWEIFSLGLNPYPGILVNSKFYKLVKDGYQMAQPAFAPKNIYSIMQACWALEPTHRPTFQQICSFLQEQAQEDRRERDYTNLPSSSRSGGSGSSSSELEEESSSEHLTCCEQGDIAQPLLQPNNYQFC
Sequence of UniProt P11802 (whole entry, looked up): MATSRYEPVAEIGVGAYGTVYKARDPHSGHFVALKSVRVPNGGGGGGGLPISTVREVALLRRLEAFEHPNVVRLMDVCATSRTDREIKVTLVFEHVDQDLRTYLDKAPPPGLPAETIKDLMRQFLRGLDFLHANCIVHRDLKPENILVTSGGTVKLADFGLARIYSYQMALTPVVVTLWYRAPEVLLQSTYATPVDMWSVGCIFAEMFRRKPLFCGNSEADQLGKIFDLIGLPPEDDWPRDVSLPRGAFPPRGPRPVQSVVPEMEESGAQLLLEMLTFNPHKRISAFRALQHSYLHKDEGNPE

Set 1
Cell line: mouse MPNST tumor cells
Technique: high-content immunofluorescence imaging
Refers to: nuclear SOX9
Concentration: 10 µM
Time: 12 h
Setting: mean of 2 replicates
Reference: DMSO control
Direction: higher = more nuclear SOX9
Under “nuclear SOX9 intensity”, C[C@](N)(Cc1ccc(O)cc1)C(=O)O is recorded as 93 % of DMSO.
COc1c(C)c2c(c(O)c1C/C=C(\C)CCC(=O)OCCN1CCOCC1)C(=O)OC2 — result for “nuclear SOX9 intensity”: 98.3 % of DMSO.
For O=C(NNS(=O)(=O)c1ccccc1F)c1cc(F)cc(-c2ccccn2)c1, “nuclear SOX9 intensity” read 77.6 % of DMSO.
COc1cc2c(cc1OC)CN(CCc1ccc(NC(=O)c3cc(OC)c(OC)cc3NC(=O)c3cnc4ccccc4c3)cc1)CC2: “nuclear SOX9 intensity” 171 % of DMSO.
Cc1cc(C)nc(SCC(=O)Nc2ncc(Cc3cccc4ccccc34)s2)n1: “nuclear SOX9 intensity” 118 % of DMSO.
For CN(CCc1ccc(Cl)c(Cl)c1)CC(O)COc1ccc(NS(C)(=O)=O)cc1 (stereo not drawn), “nuclear SOX9 intensity” read 101 % of DMSO.
Under “nuclear SOX9 intensity”, CC(C)(C)CC(C)(C)c1ccc(OCOCCOCCO)c(Cc2cc(C(C)(C)CC(C)(C)C)cc(Cc3cc(C(C)(C)CC(C)(C)C)ccc3OCOCCOCCO)c2OCOCCOCCO)c1 is recorded as 106 % of DMSO.
Under “nuclear SOX9 intensity”, CC(C)(C)c1ccc(C=CC(=O)Nc2ccc3c(c2)OCCO3)cc1 is recorded as 124 % of DMSO.
Under “nuclear SOX9 intensity”, COc1cc(-c2cc(-c3cccc(O)c3)cnc2N)cc(OC)c1OC is recorded as 207 % of DMSO.
CCOC(=O)Nc1ccc(NCc2ccc(F)cc2)nc1N — result for “nuclear SOX9 intensity”: 115 % of DMSO.
C#C[C@]1(O)CC[C@H]2[C@@H]3CCC4=CCCC[C@@H]4[C@H]3CC[C@@]21C — result for “nuclear SOX9 intensity”: 103 % of DMSO.
Cc1cccc(Nc2ccccc2C(=O)O)c1C: “nuclear SOX9 intensity” 101 % of DMSO.
Under “nuclear SOX9 intensity”, Cc1nc2c(O)cccc2c(=O)[nH]1 is recorded as 91.9 % of DMSO.
Under “nuclear SOX9 intensity”, Cc1cc(=O)n(C)c2cc(N3C(=O)CC[C@H](NS(=O)(=O)CC(C)C)[C@H]3c3ccc(Cl)cc3)ccc12 is recorded as 94.7 % of DMSO and 121 % of DMSO.
COc1ccc2cc(OCC3(C(=O)O)CN(C(=O)c4ccc(F)cc4)C3)ccc2c1: “nuclear SOX9 intensity” 89.7 % of DMSO.
For CN(C)Cc1cccc(N=C(c2ccccc2)c2c(O)[nH]c3cc(C(=O)N(C)C)ccc23)c1, “nuclear SOX9 intensity” read 114 % of DMSO.
O=c1cc(-c2ccc(O)c(O)c2)oc2cc(O)cc(O)c12: “nuclear SOX9 intensity” 151 % of DMSO.
For Cn1ccnc1S, “nuclear SOX9 intensity” read 94.7 % of DMSO.
C#C[C@]1(OC(C)=O)CC[C@H]2[C@@H]3CCC4=C[C@@H](OC(C)=O)CC[C@@H]4[C@H]3CC[C@@]21C — result for “nuclear SOX9 intensity”: 111 % of DMSO.

Set 2
SMILES: C[C@@]1(Cc2ccc(C#N)cc2)C(=O)N(c2cc(Cl)cc(Cl)c2)c2ncc(C(=O)NC3(c4nc(C5CCC5)no4)CC3)n21
Observed: cell-free assay
Technique: competition with immobilised ligand
Concentration: 1 µM
For RET (Homo sapiens, UniProt P07949, V804M): remaining binding read 100%.
PIK3CA (Homo sapiens, UniProt P42336, E545K) — remaining binding: 94%.
The remaining binding was 100% (SGK1 (Homo sapiens, UniProt O00141)).
The remaining binding was 91% (RIPK2 (Homo sapiens, UniProt O43353)).
BRAF (Homo sapiens, UniProt P15056, V600E) — remaining binding: 100%.
For FLT3 (Homo sapiens, UniProt P36888, N841I): remaining binding read 89%.
The remaining binding was 100% (SRPK3 (Homo sapiens, UniProt Q9UPE1)).
It gave 100% for remaining binding (STK17B (Homo sapiens, UniProt O94768)).
PNCK (Homo sapiens, UniProt Q6P2M8) — remaining binding: 65%.
PIM1 (Homo sapiens, UniProt P11309) — remaining binding: 100%.
For LRRK2 (Homo sapiens, UniProt Q5S007, G2019S): remaining binding read 100%.
For PRKACA (Homo sapiens, UniProt P17612): remaining binding read 100%.
For GSK3A (Homo sapiens, UniProt P49840): remaining binding read 100%.
The remaining binding was 100% (CDK5 (Homo sapiens, UniProt Q00535)).
It gave 100% for remaining binding (CDK4 (Homo sapiens, UniProt P11802)).
For CSF1R (Homo sapiens, UniProt P07333): remaining binding read 100%.
It gave 100% for remaining binding (ACVR2B (Homo sapiens, UniProt Q13705)).
For MAPK4 (Homo sapiens, UniProt P31152): remaining binding read 100%.
The remaining binding was 96% (LATS1 (Homo sapiens, UniProt O95835)).
For EPHB3 (Homo sapiens, UniProt P54753): remaining binding read 99%.
For ALK (Homo sapiens, UniProt Q9UM73): remaining binding read 100%.

Set 3
Organism: Sarcocystis neurona
Observed: parasite growth
Concentration: 10 µM
Time: 96 h
Setting: second screen
Reference: untreated
For CC=CC(=O)N(CC)c1ccccc1C (mixture of isomers), “log2 fold change” read 0.32.
COc1cc(CNC(=O)CCCC/C=C\C(C)C)ccc1O — result for “log2 fold change”: 0.72.
Under “log2 fold change”, COC(=O)Nc1nc2cc(C(=O)c3ccc(F)cc3)ccc2[nH]1 is recorded as -0.11.
For C[n+]1ccccc1/C=N/O, “log2 fold change” read 0.38.
For CC(C)(S)[C@@H](N)C(=O)O, “log2 fold change” read 0.23.
C#C[C@]1(O)CC[C@H]2[C@@H]3[C@H](C)CC4=C(CCC(=O)C4)[C@H]3CC[C@@]21C — result for “log2 fold change”: 0.28.
CCCN1CCCC[C@H]1C(=O)Nc1c(C)cccc1C: “log2 fold change” 0.58.
Under “log2 fold change”, NC[C@H]1CC[C@H](C(=O)Oc2ccc(CCC(=O)O)cc2)CC1 is recorded as 0.33.
CC(=O)OCC(=O)[C@@]1(O)CC[C@H]2[C@@H]3CCC4=CC(=O)CC[C@]4(C)[C@H]3[C@@H](O)C[C@@]21C: “log2 fold change” -0.21.
CCN(CC)CC#CCOC(=O)C(O)(c1ccccc1)C1CCCCC1 (stereo not drawn): “log2 fold change” 0.32.
CO[C@H]1/C=C/O[C@@]2(C)Oc3c(C)c(O)c4c(O)c(c5c(nc6cc(C)ccn65)c4c3C2=O)NC(=O)/C(C)=C\C=C\[C@H](C)[C@H](O)[C@@H](C)[C@@H](O)[C@@H](C)[C@H](OC(C)=O)[C@@H]1C: “log2 fold change” 0.51.
Under “log2 fold change”, Cc1nc2ccccn2c(=O)c1CCN1CCC(C(=O)c2ccc(F)cc2)CC1 is recorded as -0.19.

Single results of other studies
Cell line: A-375
Concentration: 100 µM
Time: 60 h
CCOC(=O)[C@H](CCc1ccccc1)N[C@@H](C)C(=O)N1Cc2ccccc2C[C@H]1C(=O)O gave a viability of 94.3%.
With COCCOC(=O)C1=C(C)NC(C)=C(C(=O)OC/C=C/c2ccccc2)C1c1cccc([N+](=O)[O-])c1 (stereo not drawn) the viability was 12.7%.

For quick reference, copied from above (set 1):
COc1cc2c(cc1OC)CN(CCc1ccc(NC(=O)c3cc(OC)c(OC)cc3NC(=O)c3cnc4ccccc4c3)cc1)CC2: “nuclear SOX9 intensity” 171 % of DMSO.
Cc1cc(C)nc(SCC(=O)Nc2ncc(Cc3cccc4ccccc34)s2)n1: “nuclear SOX9 intensity” 118 % of DMSO.
For CN(CCc1ccc(Cl)c(Cl)c1)CC(O)COc1ccc(NS(C)(=O)=O)cc1 (stereo not drawn), “nuclear SOX9 intensity” read 101 % of DMSO.
Under “nuclear SOX9 intensity”, CC(C)(C)CC(C)(C)c1ccc(OCOCCOCCO)c(Cc2cc(C(C)(C)CC(C)(C)C)cc(Cc3cc(C(C)(C)CC(C)(C)C)ccc3OCOCCOCCO)c2OCOCCOCCO)c1 is recorded as 106 % of DMSO.
